Experimental data gathered from unrelated publications.
Numbered parts are unrelated; each lists some results of a single study. Substitutions count along the parent as printed.

Sample 1 — technique: RNA Bind-n-Seq; form: RNA; matrix: in vitro; concentration: 200 nM; setting: whole 134-nt RNA, ends assumed; together with: 150 mM LiCl; relative to: input library; direction: higher = stronger binding; each molecule: 7-deaza-guanosine replaces G
Target: Ras GTPase-activating protein-binding protein 1, full length (G3BP1, Homo sapiens, UniProt Q13283)
Sequence of UniProt Q13283 (whole entry, looked up): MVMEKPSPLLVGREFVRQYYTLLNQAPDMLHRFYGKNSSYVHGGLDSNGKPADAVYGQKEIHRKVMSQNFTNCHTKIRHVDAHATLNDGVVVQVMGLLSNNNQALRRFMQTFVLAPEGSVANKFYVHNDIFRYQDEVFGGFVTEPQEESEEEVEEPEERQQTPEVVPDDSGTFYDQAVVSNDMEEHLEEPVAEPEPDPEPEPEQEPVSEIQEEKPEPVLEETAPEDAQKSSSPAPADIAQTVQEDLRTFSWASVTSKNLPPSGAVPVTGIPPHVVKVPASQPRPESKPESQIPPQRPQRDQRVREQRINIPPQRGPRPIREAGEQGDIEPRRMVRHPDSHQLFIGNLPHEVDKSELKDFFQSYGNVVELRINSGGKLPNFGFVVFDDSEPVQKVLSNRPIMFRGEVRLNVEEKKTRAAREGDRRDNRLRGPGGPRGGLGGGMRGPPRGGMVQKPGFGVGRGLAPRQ
Constant ends, left off below: GGGAGUUCUACAGUCCGACGAUC … UGGAAUUCUCGGGUGUCAAGG
`AGUCCUGUGCUACACAUCGUAUGUACCGAAUCGGGAAAAAGGGUUUUUUUGGGUGGGAAAGUAUUAUGUUACGCCGUUCGGAUCUGCACU` has a log2 enrichment of -1.81.
`UCCUGUGCUACACAUCGUAUGUACCGAAUCGGGAAAAAGGGAAAAAGGGUUUUUUUGGGAAAGUAUUAUGUUACGCCGUUCGGAUCUGCA` gave a log2 enrichment of -0.653.
With `AGUCCUGUGCUACACAUCGUAUGUACCGAAUCGGGAAAGGGUUUUUUUGGGAAAGGGAAAGUAUUAUGUUACGCCGUUCGGAUCUGCACU` the log2 enrichment was -1.35.
For `GUCCUGUGCUACACAUCGUAUGUACCGAAUCGGUUUUUUUGGUUUUUGGUUUUUUUGGAAAGUAUUAUGUUACGCCGUUCGGAUCUGCAC`, the log2 enrichment was -1.41.
The log2 enrichment of `CACAGACAACACGCACCCACACAGACACAGAGGGAAGGGGUUGGGAUGGGGACAGGGUGCACAGCAGGGCGCGGUAGGACCCCAGCCCCU` is reported as 0.458.
`CUCAAGUCCUGUGCUACACAUCGUAUGUACCGAAUCGGGGAAGGGGAAGGAAGGAAAGUAUUAUGUUACGCCGUUCGGAUCUGCACUUCC` gave a log2 enrichment of -0.823.
`CCUGUGCUACACAUCGUAUGUACCGAAUCGGGGAAAAAAAGGGGAAAAAGGGGAAAGGGGAAAGUAUUAUGUUACGCCGUUCGGAUCUGC` gave a log2 enrichment of 0.824.
`GCAGGAAGUAAAAACAAAUGGAAAUGCUUCGGAUAGUGGCAGGGGUGGGGGUUGCCAAGGAAAGGGUGGGAUGGGAGUGGGUAAAGAGUU` has a log2 enrichment of -0.0288.

Sample 2 — technique: DHFR PCA, deep sequencing; matrix: yeast; together with: (+)-ABA 0.032 µM; relative to: wild-type fitted maximum; direction: higher = stronger binding
Target: ABI1, truncated, D143A, DHFR fusion (Arabidopsis thaliana)
Setting: methotrexate growth selection, single substitutions
Starting sequence: PYL1, truncated, DHFR fusion (Arabidopsis thaliana); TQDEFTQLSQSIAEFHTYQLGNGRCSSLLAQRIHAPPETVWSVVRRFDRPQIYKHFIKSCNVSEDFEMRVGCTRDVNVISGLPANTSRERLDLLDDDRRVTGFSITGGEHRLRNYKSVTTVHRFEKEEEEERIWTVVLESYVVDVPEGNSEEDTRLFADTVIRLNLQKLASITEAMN
Under “relative binding score”, `Q2M` is recorded as 45.2%.
For `N22I`, “relative binding score” read 20.3%.
`T119R` — result for “relative binding score”: -1.22%.
`G71E`: “relative binding score” 0.102%.
For `F5I`, “relative binding score” read 23.5%.
`I133F` — result for “relative binding score”: 8.15%.
Under “relative binding score”, `V40T` is recorded as 6.51%.
`N85C` — result for “relative binding score”: 53.1%.
`Y53S`: “relative binding score” -0.69%.

Sample 3 — technique: RNA Bind-n-Seq; form: RNA; matrix: in vitro; concentration: 365 nM; relative to: no-protein control; direction: higher = stronger binding
Target: RNA binding protein fox-1 homolog 2, RRM domain, GST-SBP tag (RBFOX2, Homo sapiens, UniProt O43251-10, residues 100-194)
Setting: natural RNA segment, single round, ends assumed
Constant ends, left off below: GGGAGUUCUACAGUCCGACGAUC … UGGAAUUCUCGGGUGCCAA
Under “RBNS enrichment (R)”, `GAAAAUUGCAGGCUUGGUGCAGAGCGCUCUGUCAUCUUCACCCUGGGAUGUAGGAUUACCUAGCUAUGGUAAAGGAUUGCCACAGCAAACUGUGACACUGUGUAAUGAGC` is recorded as 1.16.
For `UGAAGCAUCUUUAAAUACGAUAGAAAAUAAGCUACUCAAGAAGCUGGUCUGUGUCCUUUUGCCUUAGUCCAUGCAUACUCAUUAAGGAAAAAAAGUACCAUUGUGCUAAA`, “RBNS enrichment (R)” read 1.15.
`CUCACAGUCGGCCACUGGAUUUCCCUCACUGGCUCUCAGGAGUGUGACCAGAGUAGACUUGGGGCAUGGCCAUUGGGGUCAUAUGUUUAUUUUUCAUUGUGUUUUGUGAC` — result for “RBNS enrichment (R)”: 0.652.
Under “RBNS enrichment (R)”, `GUGGAUUUUUUUAACUAUUAUUCAAAAGCAAAACUGAGUUUUGUUUUGUUUGGUUUUUUAAGAAGAAUUUAUAUCCGGGUUUAGUGUUUAUCAUAUAUAUGGGUACUCUG` is recorded as 0.43.
`CAGAGUGAGGUUUAGCUUUGUCUUUCUGGGAUUCUCAGGUUCCACAGUAAUUACAAGCUGACUUUUUACUGAACAUAGGAAUGUUAAAAACAAAUGUGUAGGUGGCUGGA` — result for “RBNS enrichment (R)”: 0.713.
`GUCUGUUAGCAUCUUCCUUUUCAUGGGGGGAGGGAAGAUAAAGUGAAUUGCCCAGAGCUGCCUUUUUCUUUUCUUUUUAAAAAUUUUAAGAAGUUUUCUUUGUGGGGCUG` — result for “RBNS enrichment (R)”: 2.34.
For `GUUCACUGGCCCUACCCGAGACUGGUGAAACUGGAAGUCUUCACACUGGAGUUGCUGUUCCAGCUGGUCGCCCCUCACGGCACAGAGGGAACCUGAGAGCCAGAGACUUC`, “RBNS enrichment (R)” read 0.464.
`AUUCUGUUUCCUGCAGUGGGAACUGGCCAUGUAGUCUUAACAGUCUUUUGUACAAAUAUCUACAAAGCAGAUAAUAUCCCUAUCCAGUGCUUGCCCUUGGAAUUGUCUCU`: “RBNS enrichment (R)” 0.36.

Sample 4 — target: CCND3, cyclin fold, Cln2 fusion (human); technique: yeast growth competition, sequencing; matrix: yeast; setting: weak parent motif; relative to: not given; direction: higher = stronger binding
Starting sequence: MICAL3 docking peptide (human); LQLRRQLSFSEDS; partner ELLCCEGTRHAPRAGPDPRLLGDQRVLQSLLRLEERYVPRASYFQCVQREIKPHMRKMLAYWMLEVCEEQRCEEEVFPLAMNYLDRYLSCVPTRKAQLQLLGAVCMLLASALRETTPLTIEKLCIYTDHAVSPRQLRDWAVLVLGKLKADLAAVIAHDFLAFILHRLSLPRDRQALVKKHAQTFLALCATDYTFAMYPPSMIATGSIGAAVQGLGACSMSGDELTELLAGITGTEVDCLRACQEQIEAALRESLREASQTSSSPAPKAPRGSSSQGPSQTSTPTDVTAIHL
`Q2E`: “normalised enrichment score” -0.0904.
Under “normalised enrichment score”, `L7Q` is recorded as 0.0372.
`F9L` — result for “normalised enrichment score”: -0.187.
Under “normalised enrichment score”, `S10E` is recorded as 0.375.
For `Q6C`, “normalised enrichment score” read 0.26.
For `L3F`, “normalised enrichment score” read 0.115.
Under “normalised enrichment score”, `L7S` is recorded as 0.0657.
`S10K`: “normalised enrichment score” 0.0717.
`R5P` — result for “normalised enrichment score”: -0.107.
Under “normalised enrichment score”, `D12A` is recorded as -0.0637.
For `D12V`, “normalised enrichment score” read 0.0613.
For `F9A`, “normalised enrichment score” read 0.0622.
`L7Y` — result for “normalised enrichment score”: -0.106.
For `S8W`, “normalised enrichment score” read -0.0509.
Under “normalised enrichment score”, `L7R` is recorded as 0.217.
`R5N`: “normalised enrichment score” 0.316.
Under “normalised enrichment score”, `R4L` is recorded as -0.1.
Under “normalised enrichment score”, `E11N` is recorded as 0.191.
`S10C`: “normalised enrichment score” 0.172.
For `Q6A`, “normalised enrichment score” read -0.289.
`E11F`: “normalised enrichment score” -0.0667.
Under “normalised enrichment score”, `F9T` is recorded as -0.111.
`D12R`: “normalised enrichment score” 0.173.
Under “normalised enrichment score”, `L7C` is recorded as -0.181.
`F9N` — result for “normalised enrichment score”: -0.252.

For quick reference, copied from above (sample 2):
`T119R` — result for “relative binding score”: -1.22%.
`G71E`: “relative binding score” 0.102%.
For `F5I`, “relative binding score” read 23.5%.
`I133F` — result for “relative binding score”: 8.15%.
